Published values pooled from the literature.
Numbered parts are unrelated; each lists some results of a single study. Changes are numbered by the printed parent chain.

Study 1
Target: NFE2L1, bZIP domain (human)
Technique: DHFR protein complementation
Medium: yeast
Notes: single substitutions, most at no-binding floor
Relative to: wild-type JUN-FOS pair
Direction: higher = stronger binding
Parent: JUN, bZIP domain (human); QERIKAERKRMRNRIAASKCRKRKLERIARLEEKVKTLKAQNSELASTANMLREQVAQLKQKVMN; partner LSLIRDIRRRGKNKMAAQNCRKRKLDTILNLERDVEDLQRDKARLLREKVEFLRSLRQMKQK
Substitution	binding fitness
A49N	-1.42 natural log
E32M	-1.19 natural log
K36F	-1.56 natural log
A46S	-1.44 natural log
A46C	-1.35 natural log
T48M	-1.26 natural log
L45S	-1.58 natural log
L38W	-1.46 natural log
Q55H	-1.45 natural log
Q41L	-1.56 natural log
E54T	-1.54 natural log
Q55G	-1.46 natural log
T48F	-1.32 natural log
A49E	-1.52 natural log
K34A	-1.5 natural log
I28T	-1.42 natural log
K34G	-1.53 natural log
R53A	-1.51 natural log
M51E	-1.5 natural log
S43G	-1.46 natural log
V35M	-1.55 natural log
V35I	-1.55 natural log
R30E	-1.23 natural log
S47R	-1.34 natural log

Study 2
Target: UBE2S UBC core domain (UniProt Q16763)
Technique: yeast two-hybrid
Medium: yeast
Notes: mostly zero background
Relative to: not given
Direction: higher = stronger interaction
B1: PHF21A RING domain (UniProt Q96BD5); chain SPTSTDGDIHEDFCSVCRKSGQLLMCDTCSRVYHLDCLDPPLKTIPKGMWICPRCQDQMLKKEEAIPW
B2: TRIM8 RING domain (UniProt Q9BZR9); chain WKNCFEEELICPICLHVFVEPVQLPCKHNFCRGCIGEAWAKDSGLVRCPECNQAYNQKPGLE
B3: RNF170 RING domain (UniProt Q96K19); chain TRQQFYTDMYCPICLHQASFPVETNCGHLFCGACIIAYWRYGSWLGAISCPICRQTVTLLLTVF
B4: MID1 RING domain (UniProt O15344); chain METLESELTCPICLELFEDPLLLPCAHSLCFNCAHRILVSHCATNESVESITAFQCPTCRHVITLSQRGL
B5: ARK2C RING domain (UniProt Q6ZSG1); chain EGEESDTDEKCTICLSMLEDGEDVRRLPCMHLFHQLCVDQWLAMSKKCPICRVDIETQLGAD
B6: IRF2BPL RING domain (UniProt Q9H1B7); chain SPMANSGPLCCTICHERLEDTHFVQCPSVPSHKFCFPCSRESIKAQGATGEVYCPSGEKCPLVGSNVP
B7: TRIM63 RING domain (UniProt Q969Q1); chain PMENLEKQLICPICLEMFTKPVVILPCQHNLCRKCANDIFQAANPYWTSRGSSVSMSGGRFRCPTCRHEVIMDRHGV
Target sequence (chain): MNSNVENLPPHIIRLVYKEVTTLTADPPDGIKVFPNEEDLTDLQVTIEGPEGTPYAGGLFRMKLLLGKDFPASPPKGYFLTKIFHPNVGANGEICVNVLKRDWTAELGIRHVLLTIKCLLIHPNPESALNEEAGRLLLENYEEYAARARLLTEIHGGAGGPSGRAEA
Sequence	lacZ reporter activity
QHHELTSLFECPVCFDYVLPPILQCQAGHLVCNQCRQKLSCCPTCRGALTPSIRNL (SIAH2 RING domain (UniProt O43255))	0
DDENSDNSNECVVCLSDLRDTLILPCRHLCLCTSCADTLRYQANNCPICRLPFRALLQIR (MGRN1 RING domain (UniProt O60291))	0
B1 (PHF21A RING domain)	0
DAIPSLSECQCGICMEILVEPVTLPCNHTLCKPCFQSTVEKASLCCPFCRRRVSSWTRYH (RNF168 RING domain (UniProt Q8IYW5))	0
FASPPDSNFVCSVCHGVLKRPARLPCSHIFCKKCILRWLARQKTCPCCRKEVKRKKVVH (RNF151 RING domain (UniProt Q2KHN1))	0
RLTMMWEEVTCPICLDPFVEPVSIECGHSFCQECISQVGKGGGSVCPVCRQRFLLKNLRP (TRIM21 RING domain (UniProt P19474))	0
B2 (TRIM8 RING domain)	0
B3 (RNF170 RING domain)	0
B4 (MID1 RING domain)	0
QLQDIKEQTMCPVCLDRLKNMIFLCGHGTCQLCGDRMSECPICRKAIERRILLY (MIB1 RING domain (UniProt Q86YT6))	0
B5 (ARK2C RING domain)	0
B6 (IRF2BPL RING domain)	0
EDEVSDNSAECVVCLSDVRDTLILPCRHLCLCNTCADTLRYQANNCPICRLPFRALLQIR (RNF157 RING domain (UniProt Q96PX1))	0
QLRRLQEERTCKVCMDKEVSIVFIPCGHLVVCKDCAPSLRKCPICRSTIKGTVRTF (BIRC3 RING domain (UniProt Q13489))	0
B7 (TRIM63 RING domain)	0
PEELQAMDNVCIICREEMVTGAKRLPCNHIFHTSCLRSWFQRQQTCPTCRMDVLRASLPA (SYVN1 RING domain (UniProt Q86TM6))	0

Study 3
Target: CCNF, cyclin fold, Cln2 fusion (human)
Technique: yeast growth competition, sequencing
Medium: yeast
Notes: strong parent motif
Relative to: not given
Direction: higher = stronger binding
Parent: SCAPER docking peptide (human); SNARRSLNFGGST
Substitution	normalised enrichment score
S12C	7.79
G11K	6.36
S6A	9.36
G11V	7.45
N8F	8.28
A3E	1.22
N2W	7.54
N2Q	6.49
T13C	6.99
T13R	7.76
A3M	3.11
S12K	6.69
R4N	3.7
T13N	7.57
G10V	5.13
T13I	7.7
A3K	0.509
R5S	0.593

Study 4
Target: RING finger protein unkempt homolog, zinc fingers 1-6, GST-SBP tag (UNK, Homo sapiens, UniProt Q9C0B0, residues 30-357)
Chain of UniProt Q9C0B0 (30-357, looked up): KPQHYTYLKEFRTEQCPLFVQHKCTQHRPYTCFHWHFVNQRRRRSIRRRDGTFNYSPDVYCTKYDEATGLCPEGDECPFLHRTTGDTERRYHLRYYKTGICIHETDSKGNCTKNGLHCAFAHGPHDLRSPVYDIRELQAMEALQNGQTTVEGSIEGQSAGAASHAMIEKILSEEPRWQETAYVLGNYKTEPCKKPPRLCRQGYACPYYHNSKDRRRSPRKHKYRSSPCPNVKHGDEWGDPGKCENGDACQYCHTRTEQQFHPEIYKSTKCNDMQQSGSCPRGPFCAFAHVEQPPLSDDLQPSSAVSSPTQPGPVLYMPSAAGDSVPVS
Technique: RNA Bind-n-Seq
Form: RNA
Medium: in vitro
Concentration: not given
Notes: RNA with constant flanks, human and mouse sites, ends assumed
Relative to: input RNA pool
Direction: higher = stronger binding
Constant ends, left off below: GGGAGUUCUACAGUCCGACGAUC … CAACAGAGGAUUGAGCAUCA
Oligonucleotide	bound/input enrichment [ratio]
AGUGAGUGGAAGCGGCGGGACGAGGCGCGGAGGCGCGAGCUGGAGGCCCGGCGGCGGCGAGAGCAGGAGGAGGAGCUGCGGCGCCUGCGGGAGCAGGAGAAGGAGGAGAAGGAGCGGAGG	0.385
UUAGGGUGCUCUUUGAGAGCAUAGUCUUAUAUCUGGGGACUAAAAUGUCAUUAGACCCUAAUAGACCAAGUUAUAUGUUUGUGUAGGAAAAAGGUUUCCUCUCUCGUUCAAGGUAAUUGU	8.35
CCACAGCAGCUCCUUUGAUAAGUACCAUAUCCUCUGUACUACACACAGCUAAAUUAAUAUUGUUUCAUUUAACCAAACCCCCCCCCCAAAAAAAAGGUUGGCUAUCUCUCUUAAUAUUGC	0.481
GGCUUUGCGCUACUCUUCUACCUUGAACAGCUUCUUGGGGGACCAGAGGUGUUUCUAGGAUUCUUAAAGGCUUAUGUUAAGAAGUUUUCCUACCAAAGUGUAACGACUGAUGACUGGAAG	0.185
UUCAUUCUACUAUUCCAGAGACUGCAAAACUCCAAGACCACCAAGUUUAUCAAGAGUUUCUUAGUGUUUAUUAACUUAUAUUGCAUUAAGUAUGGGGCACUAGCAUUACAAGAAAUAUUU	0.607
AGUAGGAAAAUCACCGUUCUGCAAGUGAACGAGAAGUCCCUCAUCCGGCAGUACACCACCUUAGUGGAGAUGGAGCGGCACCUGAGAAAGGAAAACGGGAAACACAGGAAUGACGUCAUA	0.187
UUUGGUGGUCAAAGUAAAUGGGUGUAGGAUGCUACCAGCCUCAGGAGAGGCUUCACCAUGUUUAGCAUAGUUGUCUUCACAAGAAAGAAUUACCCAGUCCAAGAUGUCAUUAGUGCCAAG	1.3
AAGAAUCAGGAAUUUCAUAUAUAGUAUACAAUUUUGCUACUUCCCCUCUGUCUCAGACUGGCUUUCUCUUAAAGAAGUAAACAGAUUUUGCGCAAAGGAGCAAGGAAGGGUUUCUUGCCU	2.37
AAUUUACAGCCUCUUUCUGAAAGGCUGACACUUCUUGCCAUUUUCGUAUCAACUUUUCUCUUUAGCCUGACAUGGCAAUUUAACCAGUUCAUGAUGCUGCUGCAGGCACUGGUGCUGUUC	0.457
AGGUCGCGGGCGCCACAGGUGGAAGAAGAAAGGUGCCACUUUGGCAUGAAGAUAGACUCACUUAGACGUCAAUCUUUUAAGCUGAGUGCAUUGUGAUUUCCAAUAAUUGAGGCAGUGGUU	0.249
UUCAAAGCCUUACGUCGACAGUUGCCAGUGACACGUACUAAGAUCGACUGGAACAAGAUCCUUAGCUACAAGAUUGGCAAAGAGAUGCAGAAUGCAUAAAUGAAAAUUGCAUGAGCAGAU	0.22
